# Measurements from different studies.
# “And” joins repeats or separate records; there may be more than shown. ± gives the spread as reported.
# UniProt P31751, sequence (whole entry, looked up): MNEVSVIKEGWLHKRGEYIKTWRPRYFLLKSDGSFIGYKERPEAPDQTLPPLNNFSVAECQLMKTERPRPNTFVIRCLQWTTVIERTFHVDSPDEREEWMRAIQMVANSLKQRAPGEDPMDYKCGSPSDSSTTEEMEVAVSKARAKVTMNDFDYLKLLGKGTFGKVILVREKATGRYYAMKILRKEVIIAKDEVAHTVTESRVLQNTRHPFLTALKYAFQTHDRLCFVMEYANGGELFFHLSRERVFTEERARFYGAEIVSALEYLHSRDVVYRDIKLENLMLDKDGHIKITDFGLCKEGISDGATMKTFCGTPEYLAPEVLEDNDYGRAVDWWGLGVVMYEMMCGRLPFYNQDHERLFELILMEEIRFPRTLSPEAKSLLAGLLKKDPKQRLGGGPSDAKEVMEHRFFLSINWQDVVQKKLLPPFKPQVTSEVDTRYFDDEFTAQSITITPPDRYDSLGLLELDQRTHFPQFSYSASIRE
Compound,tested on,assay,system,conditions,scale,measurement,value
CCN1CCN(Cc2ccc(Nc3nc4ccc(Oc5ccnc(NC(=O)C6CCN(C)CC6)c5)cc4n3C)cc2C(F)(F)F)CC1,β-hematin formation,detergent-based,,,,IC50,13 µM
CCCCCCCCCCCCCCCC(=O)N[C@@H](C)C(=O)N[C@@H](CCCNC(=N)N)C(=O)N[C@@H](CCCCN)C(=O)N[C@@H](CCCCN)C(=O)N[C@@H](CO)C(=O)N[C@@H](CC(C)C)C(=O)N[C@@H](CCC(N)=O)C(=O)N[C@@H](CO)C(=O)N[C@@H](CC(C)C)C(=O)N[C@@H](CCC(N)=O)C(=O)N[C@@H](CO)C(=O)N[C@H](C(=O)N[C@H](C(=O)N[C@@H](Cc1c[nH]cn1)C(N)=O)C(C)C)[C@@H](C)O,NTSR1-RlucII and APJ-GFP10 heteromer,BRET2 titration,HEK293,50 µM,,BRET50,10 ± 0.7 [GFP10]/[RlucII]
COc1cccc(OC)c1C(=O)N[C@@H]1C(=O)N2[C@@H]1SC(C)(C)[C@@H]2C(=O)O,PBP3 Streptococcus pneumoniae,Bocillin-FL competition,live Streptococcus pneumoniae cells,"30 min, together with: Bocillin-FL 600 nM",,kinact/KI,4800 ± 520 M⁻¹ s⁻¹
C[C@H]1CN(c2n[nH]c3nc(N[C@H]4CC[C@H](NS(=O)(=O)CCC(F)(F)F)CC4)ncc23)CCO1,"RAC-beta serine/threonine-protein kinase (AKT2, Homo sapiens, UniProt P31751)","inhibitor, Kinobeads competition profiling",,0.16 µM,relative to: vehicle,relative abundance,1.1
CC1=C(C(=O)O)N2C(=O)[C@@H](NC(=O)[C@H](N)c3ccccc3)[C@H]2SC1,PBP3 Streptococcus pneumoniae,Bocillin-FL competition,live Streptococcus pneumoniae cells,"30 min, together with: Bocillin-FL 600 nM",,kinact/KI,3700 ± 980 M⁻¹ s⁻¹
O=[Se](=O)(O)O,"sulfate/chloride exchanger, human",,neutrophils,external binding site,,Km,61.7 mM
CC(C)(C)c1ccc(OP(=O)(Oc2ccc(C(C)(C)C)cc2)Oc2ccc(C(C)(C)C)cc2)cc1,mouse carboxylesterase,,"mouse, liver","dose not given, together with: MUA substrate",,carboxylesterase activity,no inhibition
Oc1cccc(N2[C@@H]3CC[C@H]2CN(CCCc2ccccc2)C3)c1,mu opioid receptor (human),β-arrestin-2 recruitment,,,,EC50,> 50 µM
CC(=O)Nc1ccc(C=Cc2ccc(N=C=S)cc2S(=O)(=O)O)c(S(=O)(=O)O)c1,"sulfate/chloride exchanger, human","sulfate influx, inhibitor",neutrophils,"together with: 2 µM nigericin, 85 mM K+",,Ki,56 µM
Oc1cccc(CN2[C@@H]3CC[C@H]2CN(CCCc2ccccc2)C3)c1,mu opioid receptor (human),β-arrestin-2 recruitment,,,,EC50,> 50 µM
O=C(Nc1cccnn1)N1CCN([C@@H]2CCOc3cc(C(F)(F)F)ccc32)CC1,TNF-alpha (human),binding,,20 µM,,inhibition,6%
CO/N=C(\C(=O)N[C@@H]1C(=O)N2C(C(=O)O)=C(COC(C)=O)CS[C@H]12)c1csc(N)n1,PBP3 Streptococcus pneumoniae,Bocillin-FL competition,live Streptococcus pneumoniae cells,"30 min, together with: Bocillin-FL 600 nM",,kinact/KI,1.4e+06 ± 460000 M⁻¹ s⁻¹
CN1C[C@H]2CC[C@@H](C1)N2c1cccc(O)c1,mu opioid receptor (human),β-arrestin-2 recruitment,,,,Emax,0%
CC1(C)S[C@@H]2[C@H](NC(=O)[C@H](N)c3ccccc3)C(=O)N2[C@H]1C(=O)O,PBP3 Streptococcus pneumoniae,Bocillin-FL competition,live Streptococcus pneumoniae cells,"30 min, together with: Bocillin-FL 600 nM",,kinact/KI,77000 ± 14000 M⁻¹ s⁻¹
CN1CCC(=C2c3ccccc3CC(=O)c3sccc32)CC1,Plasmodium falciparum,,W2,,,IC50,0.794 µM
O=[N+]([O-])O,"sulfate/chloride exchanger, human","sulfate influx, inhibitor",neutrophils,"external site, together with: 2 µM nigericin, 85 mM K+",,Ki,21100 µM and 21200 µM
Oc1cccc(N2[C@@H]3CC[C@H]2CN(Cc2ccccc2)C3)c1,mu opioid receptor (human),β-arrestin-2 recruitment,,,,EC50,> 50 µM
COc1cc(Nc2ncc(F)c(Nc3ccc4c(n3)NC(=O)C(C)(C)O4)n2)cc(OC)c1OC,sodium channel site 2,,,,,IC50,> 10 µM
c1ccc(C(NCCNC(c2ccccc2)c2ccccc2)c2ccccc2)cc1,"adrenergic alpha1 receptor, rat",binding,,"10 µM, Eurofins selectivity panel",,inhibition,89%
CC1(C)S[C@@H]2[C@H](NC(=O)Cc3ccccc3)C(=O)N2[C@H]1C(=O)O,PBP3 Streptococcus pneumoniae,Bocillin-FL competition,live Streptococcus pneumoniae cells,"30 min, together with: Bocillin-FL 600 nM",,kinact/KI,180000 ± 55000 M⁻¹ s⁻¹
CNCCC=C1c2ccccc2CCc2ccccc21,Plasmodium falciparum,,GB4,,,IC50,6.31 µM
CO/N=C(\C(=O)N[C@@H]1C(=O)N2C(C(=O)O)=C(CSc3nc(=O)c(=O)[nH]n3C)CS[C@H]12)c1csc(N)n1,PBP1b Streptococcus pneumoniae,Bocillin-FL competition,live Streptococcus pneumoniae cells,"30 min, together with: Bocillin-FL 600 nM",,kinact/KI,9200 ± 3200 M⁻¹ s⁻¹
N[C@@H]1C[C@H]1c1ccccc1 (racemic),H+/organic cation antiporter,cell uptake,hCMEC/D3,,,Vmax,493 pmol/min/mg protein
c1ccc(CCCN2C[C@H]3CC[C@@H](C2)N3c2ccccc2)cc1,mu opioid receptor (human),β-arrestin-2 recruitment,,,,EC50,> 50 µM
CC1(C)S[C@@H]2[C@H](/N=C/N3CCCCCC3)C(=O)N2[C@H]1C(=O)O,PBP1b Streptococcus pneumoniae,Bocillin-FL competition,live Streptococcus pneumoniae cells,"30 min, together with: Bocillin-FL 600 nM",,kinact/KI,56 ± 18 M⁻¹ s⁻¹
C[C@@H](Cc1ccsc1)NC(=O)NC[C@H](Cc1ccc(O)cc1)N(C)C,mu opioid receptor (human),β-arrestin-2 recruitment,,,,Emax,0%
C[C@H](C(=O)N[C@H]1COc2ccccc2[C@@H]1S(C)(=O)=O)c1ccc(F)cc1,"NMDA receptor, rat, Glycine site",binding,,"10 µM, Eurofins selectivity panel",,inhibition,5%

# A few entries again:
Compound,tested on,assay,system,conditions,scale,measurement,value
COc1cccc(OC)c1C(=O)N[C@@H]1C(=O)N2[C@@H]1SC(C)(C)[C@@H]2C(=O)O,PBP3 Streptococcus pneumoniae,Bocillin-FL competition,live Streptococcus pneumoniae cells,"30 min, together with: Bocillin-FL 600 nM",,kinact/KI,4800 ± 520 M⁻¹ s⁻¹
C[C@H]1CN(c2n[nH]c3nc(N[C@H]4CC[C@H](NS(=O)(=O)CCC(F)(F)F)CC4)ncc23)CCO1,"RAC-beta serine/threonine-protein kinase (AKT2, Homo sapiens, UniProt P31751)","inhibitor, Kinobeads competition profiling",,0.16 µM,relative to: vehicle,relative abundance,1.1
